Experimental data of several laboratories.
Protocols differ between the studies behind these lines. ± marks the error that the study gave.

SMILES = CN1C(=O)[C@@H](Cc2ccc(O)cc2)NC(=O)CNC(=O)[C@H](Cc2ccc3ccccc3c2)NC(=O)[C@H](CCCNC(=N)N)NC(=O)[C@H]1CCCNC(=O)c1ccc(CNC(=O)CN2CCN(CC(=O)O)CCN(CC(=O)O)CCN(CC(=O)O)CC2)cc1 [gallium-68 labelled]; host = SCID mice, lymphoma xenograft; matrix = intestine; route = intravenous; time = 1 h; tissue uptake = 1.1 ± 0.1 %ID/g
SMILES = N=C(N)NCCC[C@@H]1NC(=O)[C@H](CCCCNC(=O)CNC(=O)CNC(=O)CNC(=O)CC[C@H](NC(=O)CNC(=O)CNC(=O)CNC(=O)CC[C@H](NC(=O)CN2CCN(CC(=O)O)CCN(CC(=O)O)CCN(CC(=O)O)CC2)C(=O)NCC(=O)NCC(=O)NCC(=O)N[C@@H](CCC(=O)NCC(=O)NCC(=O)NCC(=O)NCCCC[C@@H]2NC(=O)[C@@H](Cc3ccccc3)NC(=O)[C@H](CC(=O)O)NC(=O)CNC(=O)[C@H](CCCNC(=N)N)NC2=O)C(=O)NCC(=O)NCC(=O)NCC(=O)NCCCC[C@@H]2NC(=O)[C@@H](Cc3ccccc3)NC(=O)[C@H](CC(=O)O)NC(=O)CNC(=O)[C@H](CCCNC(=N)N)NC2=O)C(=O)NCC(=O)NCC(=O)NCC(=O)NCCCC[C@@H]2NC(=O)[C@@H](Cc3ccccc3)NC(=O)[C@H](CC(=O)O)NC(=O)CNC(=O)[C@H](CCCNC(=N)N)NC2=O)NC(=O)[C@@H](Cc2ccccc2)NC(=O)[C@H](CC(=O)O)NC(=O)CNC1=O [indium-111 labelled]; host = female athymic nu/nu mice; matrix = brain; route = intravenous; time = 72 h; tissue uptake = 0.1 ± 0.04 %ID/g
SMILES = CCCC[C@H](NC(=O)COCCOCCNC(=O)CN1CCN(CC(=O)O)CCN(CC(=O)O)CC1)C(=O)N[C@H]1CC(=O)NCCCC[C@@H](C(N)=O)NC(=O)[C@H](Cc2c[nH]c3ccccc23)NC(=O)[C@H](CCCNC(=N)N)NC(=O)[C@@H](Cc2ccccc2)NC(=O)[C@H](Cc2c[nH]cn2)NC1=O [copper-64 labelled]; host = C57 mice; matrix = spleen; route = intravenous; dose = 0.37 MBq; time = 4 h; tissue uptake = 0.41 ± 0.25 %ID/g
SMILES = CSCC[C@H](NC(=O)[C@H](CC(C)C)NC(=O)[C@H](Cc1c[nH]cn1)NC(=O)CNC(=O)[C@@H](NC(=O)[C@H](C)NC(=O)[C@H](Cc1c[nH]c2ccccc12)NC(=O)[C@H](CCC(N)=O)NC(=O)CCOCCOCCOCCOCCNC(=O)CN1CCN(CC(=O)O)CCN(CC(=O)O)CCN(CC(=O)O)CC1)C(C)C)C(N)=O [indium-111 labelled]; host = male Swiss nu/nu mice, PC-3 xenograft; matrix = blood; route = intravenous; dose = 10 pmol; time = 1 h post injection; setting = 111In or 99mTc labelled; tissue uptake = 0.3 ± 0.1 %ID/g
SMILES = CC(C)C[C@@H](NC(=O)[C@@H](CC(C)C)NC(=O)[C@@H](CC(=O)O)NC(=O)[C@@H](CC(C)C)NC(=O)[C@@H](CC(C)C)NC(=O)[C@@H](CC(C)C)NC(=O)[C@H](NC(=O)[C@@H](CC(=O)O)NC(=O)[C@H](NC(=O)[C@H]1CCCN1C(=O)[C@@H](Cc1ccccc1)NC(=O)[C@@H](CC(C)C)NC(=O)[C@@H](CC(C)C)NC(=O)[C@@H](CC(=O)O)NC(=O)[C@@H](CC(C)C)NC(=O)[C@@H](Cc1ccc(O)cc1)NC(=O)[C@@H](C)NC(=O)[C@@H](CCCNC(=N)N)NC(=O)[C@@H](Cc1c[nH]c2ccccc12)NC(=O)[C@H]1CCCN1C(=O)[C@@H](CC(N)=O)NC(=O)[C@@H](CCC(N)=O)NC(=O)[C@@H](CC(=O)O)NC(=O)[C@@H](CC(=O)O)NC(=O)[C@@H](CS)NC(=O)[C@@H](C)NC(=S)Nc1ccc(CC2CN(CC(=O)O)CCN(CC(=O)O)CCN2CC(=O)O)cc1)[C@H](C)O)[C@H](C)O)C(=O)N[C@H](Cc1c[nH]c2ccccc12)C(=O)O (stereo partly drawn) [copper-64 labelled]; host = BALB/c mice, female, 4T1 orthotopic tumour; matrix = small intestine; route = intravenous; time = 4 h; tissue uptake = 0.32 ± 0.042 %ID/g
SMILES = N=C(N)NCCC[C@@H]1NC(=O)[C@H](CCCCNC(=O)CNC(=O)CNC(=O)CNC(=O)CC[C@H](NC(=O)CNC(=O)CNC(=O)CNC(=O)CN2CCN(CC(=O)O)CCN(CC(=O)O)CCN(CC(=O)O)CC2)C(=O)NCC(=O)NCC(=O)NCC(=O)NCCCC[C@@H]2NC(=O)[C@@H](Cc3ccccc3)NC(=O)[C@H](CC(=O)O)NC(=O)CNC(=O)[C@H](CCCNC(=N)N)NC2=O)NC(=O)[C@@H](Cc2ccccc2)NC(=O)[C@H](CC(=O)O)NC(=O)CNC1=O [indium-111 labelled]; host = female athymic nu/nu mice; matrix = heart; route = intravenous; time = 72 h; tissue uptake = 0.15 ± 0.04 %ID/g
SMILES = Cc1cc(O)cc(C)c1C[C@H](NC(=O)[C@@H]1CCCN1C(=O)[C@H](CCCNC(=N)N)NC(=O)[C@H](CCCNC(=N)N)N(C)C(=O)[C@@H]1CCCN1C(=O)[C@H](CCCCN)NC(=O)CCNC(=O)CN1CCN(CC(=O)O)CCN(CC(=O)O)CCN(CC(=O)O)CC1)C(=O)N[C@H](C(=O)N[C@@H](CC(C)C)C(=O)O)C(C)(C)C [lutetium-177 labelled]; host = CF-1 mice; matrix = kidney; dose = dose not given; time = 1 h; tissue uptake = 13.1 ± 0.18 %ID/g
SMILES = CC(C)CC(CC(C)C)NC(=O)[C@H](Cc1cnc[nH]1)NC(=O)CNC(=O)[C@@H](NC(=O)[C@H](C)NC(=O)[C@H](Cc1c[nH]c2ccccc12)NC(=O)[C@H](CCC(N)=O)NC(=O)[C@@H](Cc1ccccc1)NC(=O)COCC(=O)Nc1ccc(CNC(=O)CN2CCN(CC(=O)O)CCN(CC(=O)O)CCN(CC(=O)O)CC2)cc1)C(C)C [lutetium-177 labelled]; host = female NMRI-Foxn1 nu/nu mice, T47D xenograft; matrix = tumour; dose = 4 MBq; time = 24 h; setting = doxorubicin 5 mg/kg weekly for 2 weeks; tissue uptake = 6.61 ± 6.08 %ID/g
SMILES = CC(C)C[C@@H](NC(=O)[C@@H](CCC(=O)O)NC(=O)[C@@H](CC(C)C)NC(=O)[C@@H](CC(C)C)NC(=O)[C@@H](CC(C)C)NC(=O)[C@H](NC(=O)[C@@H](CCC(=O)O)NC(=O)[C@H](NC(=O)[C@H]1CCCN1C(=O)[C@@H](Cc1ccccc1)NC(=O)[C@@H](CC(C)C)NC(=O)[C@@H](Cc1c[nH]c2ccccc12)NC(=O)[C@@H](CCC(=O)O)NC(=O)[C@@H](CC(C)C)NC(=O)[C@@H](Cc1ccc(O)cc1)NC(=O)[C@@H](CCCNC(=N)N)NC(=O)[C@@H](C)NC(=O)[C@@H](Cc1c[nH]c2ccccc12)NC(=O)[C@H]1CCCN1C(=O)[C@@H](CC(N)=O)NC(=O)[C@@H](CCC(N)=O)NC(=O)[C@@H](CCC(=O)O)NC(=O)[C@@H](CCC(=O)O)NC(=O)[C@@H](CS)NC(=O)[C@@H](C)NC(=S)Nc1ccc(CC2CN(CC(=O)O)CCN(CC(=O)O)CCN2CC(=O)O)cc1)[C@H](C)O)[C@H](C)O)C(=O)O (stereo partly drawn) [fluorine-18 labelled]; host = BALB/c mice, female, 4T1 orthotopic tumour; matrix = small intestine; route = intravenous; time = 4 h; tissue uptake = 0.776 ± 0.196 %ID/g
SMILES = CCCC[C@H](NC(=O)CNC(=O)CNC(=O)CN1CCN(CC(=O)O)CCN(CC(=O)O)CC1)C(=O)N[C@H]1CC(=O)NCCCC[C@@H](C(N)=O)NC(=O)[C@H](Cc2c[nH]c3ccccc23)NC(=O)[C@H](CCCNC(=N)N)NC(=O)[C@@H](Cc2ccccc2)NC(=O)[C@H](Cc2c[nH]cn2)NC1=O [technetium-99m labelled]; host = C57 mice; matrix = whole blood; route = intravenous; dose = 0.037 MBq; time = 0.5 h; tissue uptake = 1.44 ± 0.33 %ID/g
SMILES = N=C(N)NCCC[C@@H]1NC(=O)[C@H](CCCCNC(=O)CC[C@H](NC(=O)CC[C@H](NC(=O)CN2CCN(CC(=O)O)CCN(CC(=O)O)CCN(CC(=O)O)CC2)C(=O)N[C@@H](CCC(=O)NCCCC[C@@H]2NC(=O)[C@@H](Cc3ccccc3)NC(=O)[C@H](CC(=O)O)NC(=O)CNC(=O)[C@H](CCCNC(=N)N)NC2=O)C(=O)NCCCC[C@@H]2NC(=O)[C@@H](Cc3ccccc3)NC(=O)[C@H](CC(=O)O)NC(=O)CNC(=O)[C@H](CCCNC(=N)N)NC2=O)C(=O)NCCCC[C@@H]2NC(=O)[C@@H](Cc3ccccc3)NC(=O)[C@H](CC(=O)O)NC(=O)CNC(=O)[C@H](CCCNC(=N)N)NC2=O)NC(=O)[C@@H](Cc2ccccc2)NC(=O)[C@H](CC(=O)O)NC(=O)CNC1=O [indium-111 labelled]; host = female athymic nu/nu mice; matrix = lungs; route = intravenous; time = 1 h; tissue uptake = 3.43 ± 0.54 %ID/g
SMILES = CC(C)C[C@H](NC(=O)CN1CCN(CC(=O)O)CCN(CC(=O)O)CC1)C(=O)N[C@@H](CC(C)C)C(=O)N[C@@H](CC(C)C)C(=O)N[C@@H](CC(C)C)C(=O)N[C@@H](CCCNC(=N)N)C(=O)N[C@H](C(=O)N[C@@H](CCCCN)C(=O)N[C@@H](CCCNC(=N)N)C(N)=O)C(C)C [copper-64 labelled]; host = male CD1 mice; matrix = bone; route = intravenous; time = 15 min; tissue uptake = 2.65 ± 0.09 %ID/g
